Measured values pooled from the literature.
Values joined by “and” are separate records of one study, mostly repeats; a detail may differ. ± gives the spread as reported.
ALB: Albumin (ALB, Bos taurus, UniProt P02769)

Compound	target	assay	system	conditions	how to read	measurement	result
CO[C@@H]1[C@H](O)[C@@H](COP(=O)(O)OP(=O)([O-])C(F)(F)P(=O)(O)OP(=O)(O)OC[C@H]2O[C@@H](n3cnc4c(=O)[nH]c(N)nc43)[C@H](O)[C@@H]2O)O[C@H]1n1c[n+](C)c2c(O)nc(N)nc21	DCPS (Homo sapiens, UniProt Q96C86)	substrate, HPLC		0.04 mM, 60 min, 37 °C		hydrolysis	8.1% and 8%
CCC(CC)O[C@@H]1C=C(C(=O)OC(OC(=O)[C@@H](N)C(C)C)C(C)C)C[C@H](NC(=N)N)[C@H]1NC(C)=O (single isomer, unassigned)	SLC15A1 (Homo sapiens, UniProt P46059)	transporter uptake, substrate	Xenopus laevis oocytes expressing SLC15A1	pH 6.0, room temperature, together with: Gly-Sar 1 and 20 mM		uptake	decreased
CCCCCCCCCCCCCC(=O)Nc1ccccc1SSc1ccccc1NC(=O)CCCCCCCCCCCCC	ALB	binding, van't Hoff		concentration not given, 298-313 K		enthalpy change	-20.1 kcal/mol
N=C(N)NCCC[C@H](NC(=O)[C@H](CC(=O)O)NC(=O)[C@@H]1CSCC(=O)NCC(=O)N[C@@H](Cc2c[nH]cn2)C(=O)N[C@H](Cc2ccccc2)C(=O)N[C@@H](CCCNC(=N)N)C(=O)N[C@@H](Cc2c[nH]c3ccccc23)C(=O)N1)C(=O)N[C@@H](Cc1ccccc1)C(=O)NCC(N)=O	MC4R (Homo sapiens, UniProt P32245)	cAMP accumulation	HEK293 expressing MC4R	concentration not given		functional activity	inactive
COc1ccc(/C=C/C(=O)c2ccc(O)cc2)cc1	YARS1 (Homo sapiens, UniProt P54577)	enzyme activity, inhibitor		100 µM		remaining activity	< 60%
CC(=O)[O-].O.[Cu+2].[O-]c1ccc(Br)cc1C=NCCN1CCOCC1	ALB	UV absorption titration				Gibbs free energy change	-5.97 kcal/mol
CC(C)[C@H](NC(=O)[C@@H]1CCC(=O)NCCC(=O)NCCCC[C@H](NC(=O)[C@H](CCCCN)NC(=O)[C@H](Cc2ccc(O)cc2)NC(=O)[C@H](CC(N)=O)NC(=O)[C@H](CCCCN)NC(=O)[C@@H](N)CSSC[C@H](NC(=O)[C@H](CCCNC(=N)N)NC(=O)[C@H](CCCNC(=N)N)NC(=O)[C@H](CCCNC(=N)N)NC(=O)[C@H](CCCNC(=N)N)NC(=O)[C@H](CCCNC(=N)N)NC(=O)[C@H](CCCNC(=N)N)NC(=O)[C@@H](N)CCCNC(=N)N)C(=O)O)C(=O)N[C@@H]([C@@H](C)O)C(=O)N1)C(=O)O	Disks large homolog 4, PDZ3 domain (Homo sapiens, UniProt P78352)	binding, surface plasmon resonance		pH 7.5, 25 °C		kon	6000 M⁻¹ s⁻¹
CN(C)CCCSC(=S)N1CCN(C(=O)/C=C/c2coc3ccccc3c2=O)CC1	Nucleoprotein (N, Tomato spotted wilt virus, UniProt P25999)	biolayer interferometry		5 µM, 30 min, 25 °C, together with: N protein 12.5 nM, RNA		binding signal	0.17 nm
CNc1ccccc1C(=O)O[C@H]1C[C@H](n2cnc3c(N)ncnc32)O[C@@H]1COP(=O)(O)OP(=O)(O)O	Unconventional myosin-Va (Gallus gallus, UniProt Q02440, D297C/G292C/I296C/S293C/V295G)	stopped-flow FRET		10 °C, together with: MgCl2 2 mM		dissociation rate constant	1.7 ± 0.01 s⁻¹
O=C(NC[C@@H](Cc1ccccc1)N1CCC(O)(C(F)(F)F)CC1)C1(c2ccc(Cl)cc2)CCCC1	Trpa1 (Rattus norvegicus, UniProt Q6RI86, G878V/M949I)	calcium influx, agonist		G878V/M949I mutant, unit not given	baseline: AITC	Emax	~0.16
C[C@H](CCC(=O)NCC(=O)O)[C@H]1CC[C@H]2[C@@H]3C(=O)C[C@H]4C[C@H](O)CC[C@]4(C)[C@H]3CC[C@]12C	SLC10A1 (Homo sapiens, UniProt Q14973)	uptake, substrate	HEK293 expressing SLC10A1		baseline: taurocholate Jmax	normalized Jmax	1.57
O=S(=O)(Nc1cscn1)c1c(F)cc(NCc2c(F)ccc(F)c2CN2CCC2)cc1F	SCN8A (Homo sapiens, UniProt Q9UQD0)	ion current, inhibitor, patch clamp		held at V0.5		kon	132000 M⁻¹ s⁻¹
